Results pooled from the literature.
Each line is one published result; not all experiments were run side by side. ± marks the error that the study gave.
B1: α-TTP M209A; sequence looked up; chain MAEARSQPSAGPQLNALPDHSPLLQPGLAALRRRAREAGVPLAPLPLTDSFLLRFLRARDFDLDLAWRLLKNYYKWRAECPEISADLHPRSIIGLLKAGYHGVLRSRDPTGSKVLIYRIAHWDPKVFTAYDVFRVSLITSELIVQEVETQRNGIKAIFDLEGWQFSHAFQITPSVAKKIAAVLTDSFPLKVRGIHLINEPVIFHAVFSAIKPFLTEKIKERIHMHGNNYKQSLLQHFPDILPLEYGGEEFSMEDICQEWTNFIMKSEDYLSSISESIQ
B2: Pcf11 CID D117K; chain DTEVIVKDFNSILEELTFNSRPIITTLTKLAEENISCAQYFVDAIESRIEKCMPKQKLYAFYALDSICKNVGSPYTIYFSRNLFNLYKRTYLLVDNTTRTKLINMFKLWLNPNKTGLPLFEGSALEKIEQFLIKAS
Chain of UniProt P02730 (whole entry, looked up): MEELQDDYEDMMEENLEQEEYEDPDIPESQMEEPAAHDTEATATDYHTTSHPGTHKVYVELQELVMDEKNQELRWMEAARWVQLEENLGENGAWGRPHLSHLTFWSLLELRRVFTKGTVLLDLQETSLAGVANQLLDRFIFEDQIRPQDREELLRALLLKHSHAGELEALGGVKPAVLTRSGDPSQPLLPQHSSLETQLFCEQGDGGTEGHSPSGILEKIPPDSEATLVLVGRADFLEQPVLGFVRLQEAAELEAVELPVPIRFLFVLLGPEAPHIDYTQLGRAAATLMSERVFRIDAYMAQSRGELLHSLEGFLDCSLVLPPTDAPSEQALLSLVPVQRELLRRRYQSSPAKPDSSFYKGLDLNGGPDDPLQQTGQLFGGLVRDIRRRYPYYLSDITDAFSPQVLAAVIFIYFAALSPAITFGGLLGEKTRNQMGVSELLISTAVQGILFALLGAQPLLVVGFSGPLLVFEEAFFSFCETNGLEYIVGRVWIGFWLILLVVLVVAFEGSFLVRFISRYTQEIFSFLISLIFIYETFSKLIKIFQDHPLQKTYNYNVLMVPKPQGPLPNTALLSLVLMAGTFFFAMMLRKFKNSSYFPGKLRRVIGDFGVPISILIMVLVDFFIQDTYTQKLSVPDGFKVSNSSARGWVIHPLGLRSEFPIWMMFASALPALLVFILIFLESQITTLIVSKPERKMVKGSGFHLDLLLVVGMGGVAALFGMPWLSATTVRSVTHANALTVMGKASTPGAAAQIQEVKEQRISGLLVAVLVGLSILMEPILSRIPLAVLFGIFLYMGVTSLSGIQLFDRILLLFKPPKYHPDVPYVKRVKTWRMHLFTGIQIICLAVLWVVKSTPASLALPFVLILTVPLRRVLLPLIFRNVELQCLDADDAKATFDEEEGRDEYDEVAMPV
Chain of UniProt P38998 (whole entry, unmodified, looked up): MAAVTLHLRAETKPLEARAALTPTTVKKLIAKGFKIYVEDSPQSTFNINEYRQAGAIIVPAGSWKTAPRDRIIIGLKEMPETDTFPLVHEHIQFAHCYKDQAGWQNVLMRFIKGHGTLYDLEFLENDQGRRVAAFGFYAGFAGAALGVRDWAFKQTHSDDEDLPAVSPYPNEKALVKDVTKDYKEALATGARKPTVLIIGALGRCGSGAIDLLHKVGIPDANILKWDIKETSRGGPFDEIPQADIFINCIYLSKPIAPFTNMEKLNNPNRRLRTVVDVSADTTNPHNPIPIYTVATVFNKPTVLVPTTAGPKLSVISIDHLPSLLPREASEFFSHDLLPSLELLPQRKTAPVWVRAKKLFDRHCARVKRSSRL
Chain of UniProt Q5BJF2 (whole entry, looked up): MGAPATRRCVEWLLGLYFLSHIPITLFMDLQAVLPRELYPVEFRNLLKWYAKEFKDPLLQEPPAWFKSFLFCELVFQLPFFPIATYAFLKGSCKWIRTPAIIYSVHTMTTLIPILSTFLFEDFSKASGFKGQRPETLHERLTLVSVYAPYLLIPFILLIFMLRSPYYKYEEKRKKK
Chain of UniProt Q13126 (whole entry, looked up): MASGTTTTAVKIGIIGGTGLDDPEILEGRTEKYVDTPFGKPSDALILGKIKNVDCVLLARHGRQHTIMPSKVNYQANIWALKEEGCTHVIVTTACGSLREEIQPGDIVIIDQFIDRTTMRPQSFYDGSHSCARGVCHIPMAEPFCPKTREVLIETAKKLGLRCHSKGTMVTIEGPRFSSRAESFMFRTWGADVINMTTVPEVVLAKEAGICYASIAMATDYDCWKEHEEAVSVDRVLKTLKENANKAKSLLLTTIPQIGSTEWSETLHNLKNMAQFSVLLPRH
Chain of UniProt P61823 (whole entry, unmodified, looked up): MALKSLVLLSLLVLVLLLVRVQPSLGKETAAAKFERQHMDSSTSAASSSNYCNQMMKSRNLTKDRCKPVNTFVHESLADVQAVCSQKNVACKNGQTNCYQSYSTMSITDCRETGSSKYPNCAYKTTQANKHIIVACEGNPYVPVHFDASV
Chain of UniProt O54982 (whole entry, looked up): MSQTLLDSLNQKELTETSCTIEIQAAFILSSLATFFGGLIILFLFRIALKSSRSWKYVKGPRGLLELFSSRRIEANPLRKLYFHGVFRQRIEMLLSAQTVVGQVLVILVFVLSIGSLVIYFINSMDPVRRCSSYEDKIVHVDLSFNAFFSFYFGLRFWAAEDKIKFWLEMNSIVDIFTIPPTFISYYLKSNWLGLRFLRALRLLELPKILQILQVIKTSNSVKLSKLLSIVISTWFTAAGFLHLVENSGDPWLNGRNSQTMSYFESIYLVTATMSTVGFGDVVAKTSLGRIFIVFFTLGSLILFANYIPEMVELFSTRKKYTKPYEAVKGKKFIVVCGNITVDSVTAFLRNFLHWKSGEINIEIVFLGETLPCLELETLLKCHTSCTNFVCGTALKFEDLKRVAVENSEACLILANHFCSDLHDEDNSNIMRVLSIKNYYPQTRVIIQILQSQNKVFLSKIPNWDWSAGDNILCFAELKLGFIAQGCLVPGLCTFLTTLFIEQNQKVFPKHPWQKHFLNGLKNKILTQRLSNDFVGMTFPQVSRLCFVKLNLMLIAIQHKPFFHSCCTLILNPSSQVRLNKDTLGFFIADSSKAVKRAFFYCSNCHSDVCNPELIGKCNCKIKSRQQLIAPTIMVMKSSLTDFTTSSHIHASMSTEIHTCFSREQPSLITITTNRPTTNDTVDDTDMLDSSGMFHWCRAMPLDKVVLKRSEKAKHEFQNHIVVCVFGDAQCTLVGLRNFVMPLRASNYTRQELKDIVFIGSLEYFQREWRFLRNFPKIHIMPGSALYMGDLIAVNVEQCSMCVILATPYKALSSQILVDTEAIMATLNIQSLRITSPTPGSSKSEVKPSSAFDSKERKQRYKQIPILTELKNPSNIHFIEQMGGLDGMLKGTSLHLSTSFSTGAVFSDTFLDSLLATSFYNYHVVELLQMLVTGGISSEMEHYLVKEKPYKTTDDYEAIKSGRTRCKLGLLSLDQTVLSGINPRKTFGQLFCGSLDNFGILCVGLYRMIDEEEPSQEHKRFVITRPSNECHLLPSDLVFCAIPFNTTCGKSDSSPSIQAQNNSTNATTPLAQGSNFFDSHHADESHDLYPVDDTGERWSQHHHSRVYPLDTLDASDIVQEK
Chain of UniProt P00520 (whole entry, looked up): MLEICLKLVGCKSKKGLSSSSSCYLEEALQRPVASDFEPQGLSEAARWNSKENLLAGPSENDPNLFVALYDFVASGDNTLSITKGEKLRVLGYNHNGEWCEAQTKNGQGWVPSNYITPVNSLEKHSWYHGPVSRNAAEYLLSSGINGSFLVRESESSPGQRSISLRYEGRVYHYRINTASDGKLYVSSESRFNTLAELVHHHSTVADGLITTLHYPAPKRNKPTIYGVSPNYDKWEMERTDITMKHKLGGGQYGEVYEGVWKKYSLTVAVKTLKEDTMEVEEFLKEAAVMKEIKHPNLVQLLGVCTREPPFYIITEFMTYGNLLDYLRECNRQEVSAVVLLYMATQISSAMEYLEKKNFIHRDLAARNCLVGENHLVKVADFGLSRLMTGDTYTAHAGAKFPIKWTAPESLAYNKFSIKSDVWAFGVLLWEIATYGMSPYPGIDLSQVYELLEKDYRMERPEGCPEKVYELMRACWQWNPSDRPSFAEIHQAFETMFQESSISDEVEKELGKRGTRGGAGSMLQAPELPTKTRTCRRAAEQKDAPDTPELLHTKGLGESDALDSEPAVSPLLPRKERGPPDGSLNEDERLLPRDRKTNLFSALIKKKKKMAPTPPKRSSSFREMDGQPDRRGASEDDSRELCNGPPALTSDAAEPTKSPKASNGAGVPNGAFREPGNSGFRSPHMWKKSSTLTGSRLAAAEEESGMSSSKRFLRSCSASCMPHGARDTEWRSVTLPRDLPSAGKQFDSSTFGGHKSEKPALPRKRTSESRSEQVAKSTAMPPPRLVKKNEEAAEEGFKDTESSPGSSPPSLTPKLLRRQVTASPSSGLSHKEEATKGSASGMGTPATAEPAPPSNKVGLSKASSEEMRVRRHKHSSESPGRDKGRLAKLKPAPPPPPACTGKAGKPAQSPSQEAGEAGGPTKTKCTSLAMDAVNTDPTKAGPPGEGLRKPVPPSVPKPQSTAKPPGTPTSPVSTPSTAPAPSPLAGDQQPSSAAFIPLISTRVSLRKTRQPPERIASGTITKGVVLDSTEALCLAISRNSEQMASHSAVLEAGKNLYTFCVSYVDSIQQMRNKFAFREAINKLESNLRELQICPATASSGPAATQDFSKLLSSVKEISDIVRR

Molecule | target | test | system | setting | Kd [µM]
C[n+]1cccc2cc(C=NNC(=O)c3ccc4ccc5ccc(C(=O)NN=Cc6ccc7c(ccc[n+]7C)c6)nc5c4n3)ccc21 | G-quadruplex DNA 22CTA (human) | binding, fluorimetric titration | 100 mM KCl buffer | pH 7.2, together with: 5'-Cy5-labelled G4 2 nM | 0.0197 ± 0.0032
B1 (α-TTP M209A) | alpha-tocopherol transfer protein variants | binding, fluorescence titration | – | together with: NBD-Toc | 0.09
CCCC(=O)OC[C@H](COP(=O)(O)O[C@@H]1[C@H](O)[C@H](O)[C@@H](OP(=O)(O)O)[C@H](OP(=O)(O)O)[C@H]1O)OC(=O)CCC | Tyrosine-protein kinase ABL1, SH2 domain (Abl1, Mus musculus, UniProt P00520) | HSQC NMR titration | – | SH2 domain, no KCl | 130 ± 1
CC(=O)NC1C(O)CC(OC2C(O)C(CO)OC(OC3C(O)C(CO)OC(OC4C(O)C(CO)OC(OC5C(CO)OC(OC6C(CO)OC(O)C(O)C6O)C(O)C5O)C4O)C3NC(C)=O)C2O)(C(=O)O)OC1C(O)C(O)CO (centres unmarked) | Ribonuclease pancreatic (RNASE1, Bos taurus, UniProt P61823, A45C) | binding | – | pH 5 | 19
NC(=O)C1=CN([C@@H]2O[C@H](COP(=O)(O)OP(=O)(O)OC[C@H]3O[C@@H](n4cnc5c(N)ncnc54)[C@H](O)[C@@H]3O)[C@@H](O)[C@H]2O)C=CC1 | LYS1 (Saccharomyces cerevisiae, UniProt P38998, K99M/C205S) | substrate | – | pH 7.2, 25 °C, saccharopine formation direction | 310 ± 60
CC[N+](CC)(CC)CC | Kcnu1, Slo1 N-terminal chimera (Mus musculus, UniProt O54982) | ion current, blocker, cytosolic application | – | pH 8.5, closed-channel block, together with: Ca2+ 0 | 2440 ± 640
C[C@]12CCC(=O)C=C1CC[C@@H]1[C@@H]2CC[C@@]2(C)[C@H]1CC[C@]2(O)C(=O)CO | mouse anti-cortisol Fab 17 | native MS titration | 200 mM ammonium acetate | 1.5% DMSO, 0.5% methanol, together with: Fab 100 nM | 0.28 ± 0.05
CC(C)C[C@H](NC(=O)[C@H](Cc1ccc(O)cc1)NC(=O)[C@H](CC(N)=O)NC(=O)[C@H](CO)NC(=O)CNC(=O)[C@H](Cc1ccc(O)cc1)NC(=O)[C@H](CC(=O)O)NC(=O)CNC(=O)[C@H](Cc1ccc(O)cc1)NC(=O)[C@H](Cc1ccccc1)NC(=O)[C@@H]1CCCN1C(=O)[C@H](Cc1ccccc1)NC(=O)[C@H](CCC(=O)O)NC(=O)[C@H](CCCNC(=N)N)NC(=O)[C@H](Cc1c[nH]cn1)NC(=O)[C@H](CO)NC(=O)[C@H](Cc1c[nH]cn1)NC(=O)[C@H](Cc1c[nH]cn1)NC(=O)[C@H](CCCCN)NC(=O)[C@H](CCC(=O)O)NC(=O)[C@H](Cc1c[nH]cn1)NC(=O)[C@H](Cc1ccccc1)NC(=O)[C@H](CCCCN)NC(=O)[C@H](CCCNC(=N)N)NC(=O)[C@H](CCCNC(=N)N)NC(=O)[C@H](Cc1ccc(O)cc1)NC(=O)CNC(=O)[C@H](Cc1c[nH]cn1)NC(=O)[C@H](Cc1c[nH]cn1)NC(=O)[C@H](CCCNC(=N)N)NC(=O)[C@H](CCCCN)NC(=O)[C@H](CCC(=O)O)NC(=O)[C@H](Cc1c[nH]cn1)NC(=O)[C@H](COP(=O)(O)O)NC(=O)[C@@H](N)CC(=O)O)C(=O)N[C@@H](Cc1ccc(O)cc1)C(=O)N[C@@H](CC(=O)O)C(=O)N[C@@H](CC(N)=O)C(=O)O | Sigma intracellular receptor 2 (TMEM97, Homo sapiens, UniProt Q5BJF2) | binding, SPR | – | pH 7.4 | 6.3
B2 (Pcf11 CID D117K) | Saccharomyces cerevisiae CTD-binding protein | fluorescence anisotropy competition | – | pH 7.4, second binding event, together with: four-heptad Ser2P CTD peptide | 130
CCCSC[C@H]1N[C@@H](c2c[nH]c3c(N)ncnc23)[C@H](O)[C@@H]1O | S-methyl-5'-thioadenosine phosphorylase (MTAP, Homo sapiens, UniProt Q13126) | binding third site, isothermal titration calorimetry | – | – | 0.9 ± 0.6
[I-].[K+] | SLC4A1 (Homo sapiens, UniProt P02730) | 36Cl exchange flux, inhibitor, Dixon plot | human red blood cells | pH 12.4 external, 0 °C, internal Cl 294 mM, CAPS buffer | 74000
